Experimental data of several laboratories.
Numbered parts are unrelated; each lists some results of a single study. Positions count from the first letter of the parent shown.

Series 1
Target: Prothrombin, mature alpha-thrombin (F2, Homo sapiens, UniProt P00734)
Technique: aptamer microarray, sandwich
Form: DNA with 2'F-ANA
Matrix: in vitro
Concentration: 200 nM
Setting: whole 15-mer aptamer, many near background
Together with: Cy3 exosite-II aptamer, 400 nM
Direction: higher = stronger binding
Quantity: mean fluorescence intensity
Oligonucleotide: GGTTGGTGTGGTTGG
2'F-ANA at 1 2 5 9 10 11 13 15: 48.1 a.u.
2'F-ANA at 2 3 6 7 9 11 12 15: 769 a.u.
2'F-ANA at 1 4 7 9 13 14 15: 49.3 a.u.
2'F-ANA at 4 5 8 10 11 12: 46.1 a.u.
2'F-ANA at 4 5 7 11 12 13 15: 72.7 a.u.
2'F-ANA at 1 2 3 5 6 7 8 10: 46.3 a.u.
2'F-ANA at 1 10 13: 65 a.u.
2'F-ANA at 1 2 9 14 15: 61.1 a.u.
2'F-ANA at 4 5 6 8 10 12 13: 59.9 a.u.
2'F-ANA at 3 5 9 10 14: 49.1 a.u.
2'F-ANA at 2 6 9 11 12: 512 a.u.
2'F-ANA at 2 3 5 6 10 12 14 15: 67 a.u.
2'F-ANA at 1 2 5 6 10 12 13 15: 50.7 a.u.
2'F-ANA at 2 3 5 6 9 10 14 15: 48.9 a.u.
2'F-ANA at 1 3 6 7 8 11 12 14: 124 a.u.
2'F-ANA at 4 6 7 8 9 11 15: 202 a.u.
2'F-ANA at 1 3 4 5 7 9 15: 57.8 a.u.
2'F-ANA at 1 3 4 5 7 11 15: 105 a.u.
2'F-ANA at 1 2 3 4 5 6 8 10 11 12 14 15: 52.1 a.u.
2'F-ANA at 3 4 14: 364 a.u.
2'F-ANA at 3 4 5 7 8 9 10 12 13: 55.1 a.u.
2'F-ANA at 1 4 7 8 13: 111 a.u.
2'F-ANA at 1 3 4 6 7 8 9 11 14 15: 69.1 a.u.
2'F-ANA at 4 6 9 10 11 13 14 15: 58.8 a.u.

Series 2
Target: Interferon regulatory factor 5, full length, phosphomimetic (IRF5, Homo sapiens, UniProt Q13568-2, residues 1-514, S451D/S453D/S456D/S462D)
Technique: protein-binding microarray
Form: double-stranded DNA, one strand shown
Matrix: in vitro
Concentration: 940 nM top
Setting: 60-bp whole probe
Together with: salmon DNA 0.4 mg/ml
Baseline: random background probes
Direction: higher = stronger binding
Quantity: fitted relative affinity
Constant ends, left off below: GCCTAGCAC … GTCTTGATTCGCTTGACGCTGCTG
TTACGTTTCGGTCTCGGTTAGTGCTAG: 10.8 z-score
TTAGATTTCAGTCTCCATTAGTGCTAG: 1.08 z-score
CACGGTATCGACACTGGGGACGTGCTA: 3.64 z-score
TCAAGTGTTTTTCTCCTACTGTGCTAG: 0.556 z-score
GACGTTCTCGGTCTCGGGACGTGCTAG: 4.28 z-score
TTAGGTCTACTTCTCCTTTAGTGCTAG: 0.29 z-score
GACGGACTGGGTTCCGGGACGTGCTAG: -0.463 z-score
TTAGAACTGACTTTCGATTAGTGCTAG: 3.27 z-score
TTAGGTTTCGGGACTGGGTAAGTGCTA: 8.87 z-score
GATGGTATCGACACTGGGGACGTGCTA: 5.31 z-score
GACGATATCAGTATCGAGTCGTGCTAG: 2.93 z-score
TTAGAACTGTGGTTTCGATTAGTGCTA: 6.33 z-score
GACGGTCTCCTTATCATGACGTGCTAG: 0.635 z-score
GACGGTATCGACTATCGCGACGTGCTA: 4.82 z-score
GACGGTATCGGGACGGGGGACGTGCTA: 6.32 z-score
TTAGATTTCAATTTCGATTAGTGCTAG: 1.71 z-score
GACGGTATCGGGTATCGGGAGGTGCTA: 5.46 z-score
CTGGTGCTCATCTGTCATGTTGTGCTA: 0.241 z-score
TTAGGTTTCCTTATCCGTTAGTGCTAG: 1.89 z-score
TTCTAATTTACTTTGGTTGGGTGCTAG: 0.718 z-score
GACGGTATCAACACTGGGGACGTGCTA: 0.813 z-score
TCACATTTCAATTAGAAACTGTGCTAG: 0.107 z-score
TCAATTGTGGCTTTTTAACTGTGCTAG: 0.179 z-score
GACGGACTGGACCTTCGGGACGTGCTA: -0.678 z-score
GACGATTTCAGACTGGACACGTGCTAG: -0.361 z-score

Series 3
Target: RING finger protein unkempt homolog, zinc fingers 1-6, GST-SBP tag (UNK, Homo sapiens, UniProt Q9C0B0, residues 30-357)
Technique: RNA Bind-n-Seq
Form: RNA
Matrix: in vitro
Concentration: not given
Setting: RNA with constant flanks, human and mouse sites, ends assumed
Baseline: input RNA pool
Direction: higher = stronger binding
Quantity: bound/input enrichment
Constant ends, left off below: GGGAGUUCUACAGUCCGACGAUC … CAACAGAGGAUUGAGCAUCA
Target sequence (chain): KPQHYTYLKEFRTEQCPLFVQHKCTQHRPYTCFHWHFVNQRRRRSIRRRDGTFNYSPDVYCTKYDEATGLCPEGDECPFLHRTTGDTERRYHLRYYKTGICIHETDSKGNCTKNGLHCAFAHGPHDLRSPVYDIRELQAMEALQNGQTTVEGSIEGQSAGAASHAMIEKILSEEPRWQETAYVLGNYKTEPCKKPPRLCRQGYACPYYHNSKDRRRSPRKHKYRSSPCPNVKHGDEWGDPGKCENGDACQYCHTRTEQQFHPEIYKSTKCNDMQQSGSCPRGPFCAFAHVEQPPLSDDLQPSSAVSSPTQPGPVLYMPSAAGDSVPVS
GAUGACUGGCUGGAAAACAGGAAAAGAACACAGAAAAGACAGGCACCUGAAUGGACAGAAGAGGACCUCAGUCAACUGACAAGAAGUAUGGUUAAGUUCCCAGGAGGGACUCCAGGUCGA: 0.229 ratio
GCAUGCUGGGAACGCUAGCCCUUCCGGGGCGCCUCCGGGCCUCAGGUUCUGGCGUCUCGGCGGAUGCCCAAAGACUCCGCCUUCCCAGGGGCCCCCGCGGCCCUGCGAAGAUGGCGGCGA: 0.0873 ratio
CAUUUGAUGUAUGCGGUGAGGGAGGAAGUGGAAGUUCUGAAGGAGCAGAUCAAAGAACUAAUAGAGAAAAACUCCCAGCUGGAGCAGGAGAACAAUCUGCUGAAGACGCUGGCCAGUCCG: 0.31 ratio
CAGAGAUAAAAAUAAGUAAUCCCACUGAAUUCCAGAAUCAUGAAAAGCAGGAAAGCCAGGAUCUCAGAGCUACUGCAAAAGUUCCUUCUCCACCAGACGAGCACCAAGAAGCUGAGAAUG: 0.248 ratio
AUUGGUGGAGAGGCUUGUAUGUGGGGAGAAUAUGUGGACAACACAAACCUGGUCCCCAGGCUCUGGCCCAGAGCAGGGGCUGUUGCCGAAAGGCUGUGGAGCAACAAGUUGACAUCUGAC: 0.232 ratio
GUAGAGAAAGACCGGCCGGCGGCUUUAGACUCCCUUGAGGAGCCUCUUCCCGGGAUGCUCUUCUUUCUGUCAUCUGGACAGGACCAGCAAGCGCACCCCCAGCUGAGGGAACACCCAGCA: 0.0855 ratio
GAGGAUGCUCCUGGGACUUCGGAGCAGAGCUGCUGUGCUCGGGAAGACGGCAUUGAUGCUGUAGAGGUGGCAGCCGACCGACCUGGCAGUCCUCGGAGCUCGGCCUCUGGUACACACUCU: 0.043 ratio
UGCUCGGGCCAUCCACAACAUCUUUCGUAUGACAGAAUCACAUUUAUUAGUCACUUGUGACUGCUUGAAGUUAAUUGAUCCGCAGACCCAAGUUACAAGGCUCACAUUUCCAUUGCCGUG: 0.14 ratio
AUAAAUGUUUUUCUUAAUUAUUAAGAAGUGUUACCUUAUUAAAAUGACCACCAUUCUAAACCAUUUUUCAGUGGUCUGGAUACGAAGUUUACAGUUUCAUACCAACUAUCUAAAACCUAA: 0.651 ratio
UCAGAACUCAUCUCUACUCGGUUCACAGGCGCCACUGGUAGAGCAUUUCUUUUUAACAAGGUAGUUAACUUGCAGUACAGUGAAGUUCAAGAUCGGGUCAUGCUCACUGGCCGCCACAUG: 0.295 ratio
CUGGGAGAUCUUCGAACUUUGGAAUUGCUUCUUAUCUGUGCAGGCCACCCUCAGUAUGAGGUAGUAGAAAUUUCCUUUAACUUUUGGUACCGACUAGGAGAACAUUUAUACAAAACCAAU: 0.787 ratio

Series 4
Target: UBE2L6 UBC core domain (UniProt O14933)
Technique: yeast two-hybrid
Matrix: yeast
Setting: mostly zero background
Baseline: not given
Direction: higher = stronger interaction
Quantity: lacZ reporter activity
B1: RNF112 RING domain (UniProt Q9ULX5); chain QPMAPRELPTCSICLERLRDPISLDCGHDFCIRCFSTHRLPGCEPPCCPECRKICKQKRGLR
B2: RNF150 RING domain (UniProt Q9ULK6); chain DKETESDFDNCAVCIEGYKPNDVVRILPCRHLFHKSCVDPWLLDHRTCPMCKMNILKALGIP
B3: RNF149 RING domain (UniProt Q8NC42); chain EKGIDVDAENCAVCIENFKVKDIIRILPCKHIFHRICIDPWLLDHRTCPMCKLDVIKALGYW
B4: RNF14 RING domain (UniProt Q9UBS8); chain IKCFNSKLFLCSICFCEKLGSECMYFLECRHVYCKACLKDYFEIQIRDGQVQCLNCPEPKCPSVATPGQVK
B5: TRIM3 RING domain (UniProt O75382); chain VQPMDKQFLVCSICLDRYQCPKVLPCLHTFCERCLQNYIPAQSLTLSCPVCRQTSILPEQGV
B6: ANKIB1 RING domain (UniProt Q9P2G1); chain LSPGDLDTSLCDICMCSISVFEDPVDMPCGHDFCRGCWESFLNLKIQEGEAHNIFCPAYDCFQLVPVDIIE
Target sequence (chain): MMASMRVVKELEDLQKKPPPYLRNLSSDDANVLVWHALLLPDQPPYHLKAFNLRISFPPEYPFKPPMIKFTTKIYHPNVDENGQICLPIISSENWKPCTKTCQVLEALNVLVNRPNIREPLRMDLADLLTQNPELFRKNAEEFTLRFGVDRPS
B1 (RNF112 RING domain): 0
LKQVSIRENCCSLCCDEVADTQLKPCGHSDLCMDCALQLETCPLCRKEIVSRIRQI (RSPRY1 RING domain (UniProt Q96DX4)): 0
B2 (RNF150 RING domain): 5760
MANWVFCNRCFQPPHRTSCFSLTNCGHVYCDACLGKGKKNECLICKAPCRTVLLSK (RNF212 RING domain (UniProt Q495C1)): 0
B3 (RNF149 RING domain): 0
B4 (RNF14 RING domain): 0
B5 (TRIM3 RING domain): 0
B6 (ANKIB1 RING domain): 0

Series 5
Target: ABI1, truncated, D143A, DHFR fusion (Arabidopsis thaliana)
Technique: DHFR PCA, deep sequencing
Matrix: yeast
Setting: methotrexate growth selection, single substitutions
Together with: (+)-ABA 0.39 µM
Baseline: wild-type fitted maximum
Direction: higher = stronger binding
Quantity: relative binding score
Parent: PYL1, truncated, DHFR fusion (Arabidopsis thaliana); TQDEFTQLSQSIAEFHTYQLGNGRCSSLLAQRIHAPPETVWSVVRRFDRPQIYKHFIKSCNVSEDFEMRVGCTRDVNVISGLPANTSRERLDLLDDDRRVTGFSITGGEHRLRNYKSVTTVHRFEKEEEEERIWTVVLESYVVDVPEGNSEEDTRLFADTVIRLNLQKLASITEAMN
Y18A: 6.46%
P50V: -4.62%
S150C: 19.9%
A84L: 18.5%
A30F: 40.4%
S140A: 17.3%
S104M: -10.4%
F56R: -6.17%
A170S: -1.87%
M176N: 10.5%
R163E: 9.57%
T154C: -1.97%
I57F: -5.27%
T39V: 62.5%
N149H: 34.8%
